Assay results from different studies.
Each line is one published result; not all experiments were run side by side. ± marks the error that the study gave.

CC(C)CC(O)(CC(C)C)c1cn(C(=O)N2CCCC2)nn1 gave a protein level of 1.07 ± 0.04 (mouse T-cells; SILAC proteomics, item: OXSR1; 1 nM, 6 h, unit not given; relative to: DMSO).
Under “hind paw volume”, O=C1C[C@@H](c2ccc(O)cc2)Oc2cc(O)ccc21 is recorded as 1.79 ± 0.11 mL (Sprague-Dawley rat, Freund's adjuvant arthritis; oral, 10 mg/kg, 1 h, with: aconitine 1 mg/kg).
With COC[C@@H](NC(C)=O)C(=O)NCc1ccc(OCc2cccc(F)c2)cc1 the licking time was 63% (formalin test, phase II; mouse; ip, 9.0 mg/kg; relative to: vehicle).
CC(C)C[C@H](NC(=O)CNC(=O)[C@H](CCC(=O)O)NC(=O)[C@H](CCCCN)NC(=O)[C@H](CC(C)C)NC(=O)[C@H](C)NC(=O)[C@H](C)NC(=O)CNC(=O)[C@H](C)NC(=O)[C@H](CCCCN)NC(=O)[C@H](CCC(=O)O)NC(=O)[C@H](CC(C)C)NC(=O)[C@H](CCCCN)NC(=O)[C@H](CCCCN)NC(=O)[C@H](CC(C)C)NC(=O)[C@H](CC(C)C)NC(=O)[C@H](CCCCN)NC(=O)[C@H](Cc1c[nH]c2ccccc12)NC(=O)[C@@H](N)CCCCN)C(=O)N[C@@H](CC(C)C)C(=O)N[C@@H](CCCCN)C(=O)N[C@@H](C)C(=O)NCC(=O)N1CCC[C@H]1C(=O)N[C@@H](C)C(=O)N[C@@H](CC(C)C)C(=O)N[C@@H](C)C(=O)N[C@@H](CC(C)C)C(=O)N[C@@H](CC(C)C)C(=O)NCC(=O)N[C@@H](C)C(=O)N[C@@H](C)C(=O)N[C@@H](C)C(=O)N[C@@H](C)C(=O)N[C@@H](CC(C)C)C(=O)N[C@@H](C)C(=O)N[C@@H](CCCCN)C(N)=O: “DPX/ANTS release rate ratio” 8.5 (POPC/POPG 1:1 vesicles; relative to: DPX over ANTS).
Under “log2 fold change”, Cc1ccc(/C=C/C(=O)O)cc1-c1cc2c(cc1C)C(C)(C)CCC2(C)C is recorded as -0.3 (RNA sequencing, item: Sfrp5; rat, brain; dose not given, 24 h; relative to: vehicle).
CC[C@H](C)[C@H](NC(=O)[C@H](CCCNC(=N)N)NC(=O)[C@H](CCC(N)=O)NC(=O)[C@H](CC(=O)O)NC(=O)[C@H](CC(C)C)NC(=O)[C@H](CC(C)C)NC(=O)[C@H](CC(N)=O)NC(=O)[C@H](Cc1ccccc1)NC(=O)[C@H](CC(=O)O)NC(=O)[C@@H](NC(=O)[C@@H](NC(=O)[C@H](CC(N)=O)NC(=O)CNC(=O)[C@H](CO)NC(C)=O)C(C)C)[C@@H](C)CC)C(=O)N[C@H](C(=O)N[C@@H](Cc1c[nH]c2ccccc12)C(=O)N[C@@H](CCC(N)=O)C(=O)N[C@@H](CC(N)=O)C(=O)N[C@@H](Cc1c[nH]c2ccccc12)C(=O)N[C@@H](Cc1ccc(O)cc1)C(=O)N[C@@H](C)C(N)=O)[C@@H](C)CC: “α4β7− CCR9+ cells” 7.69% (item: HA-51 tetramer; antigen-experienced tetramer+ CD4 T cells, healthy adults, HLA-DRB1*0101; dose not given).
CC/C=C\C/C=C\C/C=C\C/C=C\C/C=C\C/C=C\CCC(=O)Nc1ccn(C2OC(CO)C(O)C2(F)F)c(=O)n1 (stereo not drawn) has a CC50 of 35.3 µM (DU-145; NCI60 screen).
For N=C(N)NCCC[C@@H]1NC(=O)[C@H](CCCCNC(=O)CC[C@H](NC(=O)CCOCCOCCOCCOCCNC(=O)CC[C@H](NC(=O)CN2CCN(CC(=O)O)CCN(CC(=O)O)CCN(CC(=O)O)CC2)C(=O)NCCOCCOCCOCCOCCC(=O)N[C@@H](CCC(=O)NCCCC[C@@H]2NC(=O)[C@@H](Cc3ccccc3)NC(=O)[C@H](CC(=O)O)NC(=O)CNC(=O)[C@H](CCCNC(=N)N)NC2=O)C(=O)NCCCC[C@@H]2NC(=O)[C@@H](Cc3ccccc3)NC(=O)[C@H](CC(=O)O)NC(=O)CNC(=O)[C@H](CCCNC(=N)N)NC2=O)C(=O)NCCCC[C@@H]2NC(=O)[C@@H](Cc3ccccc3)NC(=O)[C@H](CC(=O)O)NC(=O)CNC(=O)[C@H](CCCNC(=N)N)NC2=O)NC(=O)[C@@H](Cc2ccccc2)NC(=O)[C@H](CC(=O)O)NC(=O)CNC1=O [indium-111 labelled], the tissue uptake was 2.31 ± 0.61 %ID/g (female athymic nude mice, kidney; intravenous, 3 µCi, 72 h, U-87 MG glioma xenograft).
Under “α4β7+ CCR9− cells”, CC[C@H](C)[C@H](NC(=O)[C@@H](NC(=O)[C@H](CC(=O)O)NC(C)=O)[C@@H](C)O)C(=O)N[C@@H](CCCNC(=N)N)C(=O)N[C@@H](CC(C)C)C(=O)N[C@@H](CC(C)C)C(=O)N[C@@H](Cc1ccccc1)C(=O)N[C@@H](CCC(N)=O)C(=O)N[C@@H](CC(C)C)C(=O)N[C@@H](CCSC)C(=O)N[C@@H](CCCNC(=N)N)C(=O)N1CCC[C@H]1C(=O)N1CCC[C@H]1C(=O)N[C@@H](CC(N)=O)C(=O)N[C@@H](CCSC)C(=O)N[C@H](C(=O)N1CCC[C@H]1C(=O)N[C@@H](C)C(=O)N[C@H](C(=O)N[C@@H](CC(N)=O)C(=O)N[C@@H](C)C(N)=O)C(C)C)[C@@H](C)O is recorded as 58.8% (item: HA-51 tetramer; antigen-experienced tetramer+ CD4 T cells, healthy adults, HLA-DRB1*0101; dose not given).
Under antinociception, Cc1cc(O)cc(C)c1CC(N)C(=O)NC1CCNc2c(CCc3ccccc3)cc(Cc3ccccc3)cc21 (stereo not drawn) is recorded as “inactive” (warm water tail withdrawal; male C57BL/6 mice; intraperitoneal, 10 mg/kg).
CC[C@H](C)[C@H](NC(=O)[C@H](Cc1c[nH]c2ccccc12)NC(=O)[C@H](CCCNC(=N)N)NC(=O)[C@H](CCCCN)NC(=O)[C@H](CC(C)C)NC(=O)[C@H](CC(=O)O)NC(=O)[C@H](Cc1ccccc1)NC(=O)[C@H](C)NC(=O)[C@H](Cc1ccc(O)cc1)NC(=O)[C@H](CC(N)=O)NC(=O)[C@H](Cc1ccc(O)cc1)NC(=O)[C@H](CCCNC(=N)N)NC(=O)[C@H](Cc1ccc(O)cc1)NC(=O)[C@H](Cc1ccc(O)cc1)NC(=O)[C@@H](NC(=O)[C@H](CC(C)C)NC(=O)[C@H](C)NC(=O)[C@H](CC(N)=O)NC(=O)[C@H](Cc1ccc(O)cc1)NC(C)=O)[C@@H](C)CC)C(=O)N[C@@H](Cc1ccc(O)cc1)C(=O)N[C@@H](CC(C)C)C(N)=O: “α4β7− CCR9+ cells” 0% (item: HA-15 tetramer; antigen-experienced tetramer+ CD4 T cells, healthy adults, HLA-DRB1*0101; dose not given).
With C[C@@H](O)[C@H](NC(=O)[C@@H]1CSSC[C@H](NC(=O)[C@@H](Cc2ccccc2)NC(=O)CN2CCN(CC(N)=O)CCN(CC(N)=O)CCN(CC(N)=O)CC2)C(=O)N[C@@H](Cc2ccc(O)cc2)C(=O)N[C@H](Cc2c[nH]c3ccccc23)C(=O)N[C@@H](CCCCN)C(=O)N[C@@H]([C@@H](C)O)C(=O)N1)C(=O)O [lead-212 labelled] the median survival was 8.5 weeks (mice, AR-42J tumour model; single injection of 10 µCi).
CC(C)C[C@@H]1NC(=O)[C@H](C(C)C)NC(=O)[C@H](CO)NC(=O)CNC(=O)CNC(=O)[C@H](CCCNC(=N)N)NC(=O)[C@@H]2CCCN2C(=O)[C@@H](NC(=O)CC[C@H](NC(=O)c2ccc(N(C)Cc3cnc4nc(N)nc(N)c4n3)cc2)C(=O)O)C(C)(C)SSC[C@@H](C(=O)O)NC(=O)CNC(=O)[C@H]([C@@H](C)O)NC(=O)[C@H](C(C)C)NC1=O: “bone resorption score reduction” 71% (rat adjuvant arthritis; iv, 5 mg/kg once daily, day 14; relative to: arthritis vehicle, direction not given).
N=C(N)NCCC[C@@H]1NC(=O)[C@H](CCCCNC(=O)CCOCCOCCOCCOCCNC(=O)CC[C@H](NC(=O)CCOCCOCCOCCOCCNC(=O)CC[C@H](NC(=O)CN2CCN(CC(=O)O)CCN(CC(=O)O)CCN(CC(=O)O)CC2)C(=O)NCCOCCOCCOCCOCCC(=O)N[C@@H](CCC(=O)NCCOCCOCCOCCOCCC(=O)NCCCC[C@@H]2NC(=O)[C@@H](Cc3ccccc3)NC(=O)[C@H](CC(=O)O)NC(=O)CNC(=O)[C@H](CCCNC(=N)N)NC2=O)C(=O)NCCOCCOCCOCCOCCC(=O)NCCCC[C@@H]2NC(=O)[C@@H](Cc3ccccc3)NC(=O)[C@H](CC(=O)O)NC(=O)CNC(=O)[C@H](CCCNC(=N)N)NC2=O)C(=O)NCCOCCOCCOCCOCCC(=O)NCCCC[C@@H]2NC(=O)[C@@H](Cc3ccccc3)NC(=O)[C@H](CC(=O)O)NC(=O)CNC(=O)[C@H](CCCNC(=N)N)NC2=O)NC(=O)[C@@H](Cc2ccccc2)NC(=O)[C@H](CC(=O)O)NC(=O)CNC1=O [indium-111 labelled] has a tissue uptake of 0.15 ± 0.01 %ID/g (female athymic nude mice, brain; intravenous, 3 µCi, 0.5 h, U-87 MG glioma xenograft).
With O=C(/C=C/c1ccc(O)cc1)OC[C@H]1O[C@@H](Oc2cc(O)c3c(=O)cc(-c4ccc(O)cc4)oc3c2)[C@H](O)[C@@H](O)[C@@H]1O the IC50 was 42.6 µM (ABTS scavenging, absorbance; 15 min).
With CN(C)CC1CCCCC1(O)c1cccc(O)c1 (stereo not drawn) the Papp A-to-B was 15.4 ± 1 ×10⁻⁶ cm/s (human P-glycoprotein; Caco-2 TC7 monolayer; 50 µM, 3 h, apical pH 7.4, basolateral pH 7.4, with: cyclosporine A 10 µM).
For CC[C@H](C)[C@H](NC(=O)[C@H](CCCCN)NC(=O)CNC(=O)[C@H](CC(C)C)NC(=O)[C@@H](NC(=O)[C@H](C)NC(=O)[C@H](CCCCN)NC(=O)CNC(=O)[C@H](C)NC(=O)CNC(=O)[C@H](CCCCN)NC(=O)[C@H](CCSC)NC(=O)[C@H](CCCCN)NC(=O)[C@@H](NC(=O)[C@H](Cc1c[nH]c2ccccc12)NC(=O)[C@H](CC(C)C)NC(=O)[C@H](CCC(=O)O)NC(=O)[C@H](CCCCN)NC(=O)[C@H](CC(C)C)NC(=O)[C@@H](N)CC(C)C)[C@@H](C)O)C(C)C)C(=O)N[C@@H](CCCCN)C(=O)NCC(=O)N[C@@H](CC(C)C)C(=O)N[C@@H](CC(C)C)C(=O)O, the calcein leakage was about 15% (calcein release; PC-containing vesicles, 200 µM lipid; 15 µM, 1 h; relative to: Triton X-100).
For COc1cc(C(Oc2ccc(C[C@H](N)C(=O)N[C@H](C)C(=O)NCC(=O)N(C)[C@@H](Cc3ccccc3)C(=O)NCCO)cc2)C(=O)O)c([N+](=O)[O-])cc1OC (stereo partly drawn), “duration of paw-attending decrease” read 10 to 20 min (mouse formalin pain model; intra-NAc infusion, 0.5 µL, 200 µM, with: 375 nm light uncaging).
CSCCNC(=O)CCC(C)C1CCC2C3C(O)CC4CC(O)CCC4(C)C3CCC12C (stereo not drawn): “CA-derived bile acids” “increased” (SPF mice, faeces; oral gavage, 50 mg/kg daily, 14 days; relative to: vehicle).
CN[C@](C)(C[18F])C(=O)O gave a tracer uptake of 1.3 %ID/g (MDA-MB-468 tumour model; host not given, muscle; 1 h, tumour-bearing).
CCOP(=O)(CC(=O)Nc1ccc(S(=O)(=O)N(CC(N)=O)c2ccc(N(CC(N)=O)S(=O)(=O)c3ccc(OC)cc3)c3ccccc23)cc1)OCC: “dead neuron number” “decreased” (Nissl staining; APP/PS1 mice, hippocampus CA1, CA3, DG; 40 mg/kg; relative to: untreated APP/PS1).
